Measured values of several laboratories.
A part holds a random share of what one study measured.
Chain of UniProt P25098 (whole entry, looked up): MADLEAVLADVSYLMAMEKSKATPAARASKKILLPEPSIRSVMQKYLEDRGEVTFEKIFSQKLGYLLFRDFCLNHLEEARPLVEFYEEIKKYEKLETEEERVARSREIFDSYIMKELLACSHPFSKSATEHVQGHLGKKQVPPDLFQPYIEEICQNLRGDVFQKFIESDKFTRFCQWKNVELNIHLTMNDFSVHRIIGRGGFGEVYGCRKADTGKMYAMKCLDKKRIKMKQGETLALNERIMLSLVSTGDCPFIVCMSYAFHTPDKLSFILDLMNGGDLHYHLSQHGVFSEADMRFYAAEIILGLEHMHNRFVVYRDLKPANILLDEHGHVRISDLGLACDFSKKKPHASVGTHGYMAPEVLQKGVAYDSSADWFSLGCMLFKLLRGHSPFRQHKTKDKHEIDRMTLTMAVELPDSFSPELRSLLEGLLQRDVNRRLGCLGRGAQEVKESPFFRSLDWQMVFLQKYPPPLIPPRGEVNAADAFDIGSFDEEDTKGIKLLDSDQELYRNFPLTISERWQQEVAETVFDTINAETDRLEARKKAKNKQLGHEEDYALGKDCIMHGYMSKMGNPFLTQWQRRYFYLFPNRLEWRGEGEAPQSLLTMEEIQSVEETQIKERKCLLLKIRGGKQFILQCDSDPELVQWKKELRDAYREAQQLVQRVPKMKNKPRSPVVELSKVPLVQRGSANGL
Chain of UniProt O94921 (whole entry, looked up): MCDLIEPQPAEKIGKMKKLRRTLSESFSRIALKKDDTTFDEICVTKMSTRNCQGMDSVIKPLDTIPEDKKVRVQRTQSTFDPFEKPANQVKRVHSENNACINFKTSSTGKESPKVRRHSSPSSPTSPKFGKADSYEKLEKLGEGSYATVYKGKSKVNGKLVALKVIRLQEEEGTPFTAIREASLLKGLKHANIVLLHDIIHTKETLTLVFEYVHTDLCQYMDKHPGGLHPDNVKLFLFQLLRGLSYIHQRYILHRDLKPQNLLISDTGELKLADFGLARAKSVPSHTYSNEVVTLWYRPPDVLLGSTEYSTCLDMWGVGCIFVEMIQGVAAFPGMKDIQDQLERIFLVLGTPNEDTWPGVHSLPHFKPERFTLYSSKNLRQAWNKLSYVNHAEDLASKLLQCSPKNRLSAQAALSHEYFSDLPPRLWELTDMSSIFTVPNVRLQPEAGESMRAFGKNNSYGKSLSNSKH
Chain of UniProt Q16513 (whole entry, looked up): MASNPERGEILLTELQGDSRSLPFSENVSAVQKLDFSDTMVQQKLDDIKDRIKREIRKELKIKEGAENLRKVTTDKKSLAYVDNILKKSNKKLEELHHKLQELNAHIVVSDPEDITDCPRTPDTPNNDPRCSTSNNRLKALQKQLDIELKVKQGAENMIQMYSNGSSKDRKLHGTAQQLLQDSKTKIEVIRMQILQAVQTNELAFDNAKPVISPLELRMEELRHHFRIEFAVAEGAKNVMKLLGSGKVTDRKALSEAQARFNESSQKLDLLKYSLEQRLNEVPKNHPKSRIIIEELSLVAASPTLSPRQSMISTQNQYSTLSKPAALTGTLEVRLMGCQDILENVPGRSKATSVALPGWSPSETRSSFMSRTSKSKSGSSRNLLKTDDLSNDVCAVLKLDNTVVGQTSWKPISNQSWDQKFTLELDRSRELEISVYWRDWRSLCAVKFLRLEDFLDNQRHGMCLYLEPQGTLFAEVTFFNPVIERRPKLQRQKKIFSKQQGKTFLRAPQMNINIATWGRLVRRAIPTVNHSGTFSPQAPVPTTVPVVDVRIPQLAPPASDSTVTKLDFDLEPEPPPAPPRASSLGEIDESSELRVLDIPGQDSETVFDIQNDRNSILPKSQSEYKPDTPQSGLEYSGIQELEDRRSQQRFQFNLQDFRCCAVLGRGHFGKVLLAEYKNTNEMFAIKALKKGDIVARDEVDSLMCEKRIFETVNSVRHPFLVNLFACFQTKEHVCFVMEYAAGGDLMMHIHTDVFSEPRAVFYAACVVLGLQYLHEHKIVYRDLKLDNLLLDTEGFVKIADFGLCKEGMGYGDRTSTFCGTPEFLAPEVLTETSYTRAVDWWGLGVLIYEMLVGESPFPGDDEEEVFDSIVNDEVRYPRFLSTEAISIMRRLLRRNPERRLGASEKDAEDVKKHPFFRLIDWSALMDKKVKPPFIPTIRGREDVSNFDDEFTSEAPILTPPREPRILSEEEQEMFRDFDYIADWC
Chain of UniProt Q56UN5 (whole entry, looked up): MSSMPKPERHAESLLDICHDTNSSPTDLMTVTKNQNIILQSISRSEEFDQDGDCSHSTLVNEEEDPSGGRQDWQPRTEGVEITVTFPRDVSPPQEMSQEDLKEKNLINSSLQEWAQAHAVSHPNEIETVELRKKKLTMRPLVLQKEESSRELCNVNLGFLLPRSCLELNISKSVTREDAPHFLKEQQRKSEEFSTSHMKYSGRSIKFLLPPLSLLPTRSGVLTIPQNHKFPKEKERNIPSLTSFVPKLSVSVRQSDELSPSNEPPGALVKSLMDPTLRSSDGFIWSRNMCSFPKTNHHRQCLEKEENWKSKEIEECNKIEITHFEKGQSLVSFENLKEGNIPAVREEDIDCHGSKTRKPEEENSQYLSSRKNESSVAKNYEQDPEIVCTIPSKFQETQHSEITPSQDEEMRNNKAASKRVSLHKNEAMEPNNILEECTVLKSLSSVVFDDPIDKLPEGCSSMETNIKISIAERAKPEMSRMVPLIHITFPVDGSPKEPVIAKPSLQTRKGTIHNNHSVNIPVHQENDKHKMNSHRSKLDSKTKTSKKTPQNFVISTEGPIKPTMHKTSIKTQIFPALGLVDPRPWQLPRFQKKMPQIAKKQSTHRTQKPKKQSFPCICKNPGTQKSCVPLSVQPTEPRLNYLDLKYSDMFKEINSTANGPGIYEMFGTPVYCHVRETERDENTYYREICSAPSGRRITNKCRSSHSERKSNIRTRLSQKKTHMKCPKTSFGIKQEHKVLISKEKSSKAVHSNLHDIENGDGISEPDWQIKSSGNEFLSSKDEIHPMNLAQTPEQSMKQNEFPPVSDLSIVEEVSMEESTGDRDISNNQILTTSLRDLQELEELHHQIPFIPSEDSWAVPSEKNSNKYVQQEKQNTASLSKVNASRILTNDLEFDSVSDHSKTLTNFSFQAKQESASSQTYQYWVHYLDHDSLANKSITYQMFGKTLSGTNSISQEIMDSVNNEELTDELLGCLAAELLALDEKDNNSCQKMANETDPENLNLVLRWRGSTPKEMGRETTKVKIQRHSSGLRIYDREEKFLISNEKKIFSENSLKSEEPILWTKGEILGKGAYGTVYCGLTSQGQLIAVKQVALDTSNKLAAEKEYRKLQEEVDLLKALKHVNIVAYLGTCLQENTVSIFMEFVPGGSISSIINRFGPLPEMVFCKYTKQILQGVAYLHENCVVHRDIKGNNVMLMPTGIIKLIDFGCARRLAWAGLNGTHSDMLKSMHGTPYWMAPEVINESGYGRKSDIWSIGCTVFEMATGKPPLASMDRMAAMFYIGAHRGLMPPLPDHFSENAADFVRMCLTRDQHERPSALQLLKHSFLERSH
Chain of UniProt Q07002 (whole entry, looked up): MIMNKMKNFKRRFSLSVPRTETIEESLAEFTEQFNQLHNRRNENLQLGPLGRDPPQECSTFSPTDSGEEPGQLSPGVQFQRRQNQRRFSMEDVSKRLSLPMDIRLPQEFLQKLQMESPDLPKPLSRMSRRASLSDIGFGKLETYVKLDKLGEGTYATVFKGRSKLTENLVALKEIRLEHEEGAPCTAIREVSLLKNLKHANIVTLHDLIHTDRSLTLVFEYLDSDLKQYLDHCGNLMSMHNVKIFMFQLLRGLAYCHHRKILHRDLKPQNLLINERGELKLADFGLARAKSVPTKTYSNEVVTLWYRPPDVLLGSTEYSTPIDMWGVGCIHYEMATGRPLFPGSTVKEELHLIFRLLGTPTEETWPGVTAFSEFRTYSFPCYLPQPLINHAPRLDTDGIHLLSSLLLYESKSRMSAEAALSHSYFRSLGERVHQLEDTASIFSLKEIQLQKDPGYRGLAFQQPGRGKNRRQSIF

Sample 1 — cell line: Huh-7; tested at: 10 µM; time: 24 h; endpoint: viability
SMILES = O=C(CCCN1CCC(O)(c2ccc(Br)cc2)CC1)c1ccc(F)cc1; result = 95.9%
SMILES = O=C(N[C@H](CO)[C@H](O)c1ccc([N+](=O)[O-])cc1)C(Cl)Cl; result = 94.6%
SMILES = CN(C)CCc1c[nH]c2ccc(Cn3cncn3)cc12; result = 92.3%
SMILES = CCCCCCCCN[C@@H](C)[C@H](O)c1ccc(SC(C)C)cc1 (racemic); result = 82.2%
SMILES = c1ccc(-c2ccc(C(c3ccccc3)n3ccnc3)cc2)cc1 (centres unmarked); result = 83.4%
SMILES = CC(=O)Oc1ccc2c(c1)CC[C@@H]1[C@@H]2CC[C@]2(C)[C@@H](O)CC[C@@H]12; result = 95%
SMILES = CC(=O)O[C@]1(C(C)=O)CC[C@H]2[C@@H]3C=C(Cl)C4=CC(=O)CC[C@]4(C)[C@H]3CC[C@@]21C; result = 90.3%
SMILES = CCCCCCCCCCC[C@@H](C[C@@H]1OC(=O)[C@H]1CCCCCC)OC(=O)[C@H](CC(C)C)NC=O; result = 96%
SMILES = Nc1nnc(-c2cccc(Cl)c2Cl)c(N)n1; result = 103%
SMILES = CCN(CC)C(=S)SSC(=S)N(CC)CC; result = 96.9%
SMILES = COc1ccc(CN(CCN(C)C)c2ccccn2)cc1; result = 102%
SMILES = C/C(=C\C(=O)OCCCCCCCCC(=O)O)C[C@@H]1OC[C@H](C[C@@H]2O[C@H]2[C@@H](C)[C@H](C)O)[C@@H](O)[C@H]1O; result = 98.5%
SMILES = NCCc1ccc(O)c(O)c1; result = 99.2%

Sample 2 — cell line: A-375; tested at: 100 µM; time: 36 h; endpoint: viability
Structure (SMILES) = c1ccc2c(CC3=NCCN3)cccc2c1; result = 113%
Structure (SMILES) = C[N+](C)(C)C[C@H](O)CC(=O)[O-]; result = 124%
Structure (SMILES) = COc1ccccc1OCC(O)COC(N)=O (centres unmarked); result = 88.9%
Structure (SMILES) = Cc1cc(CC(=O)O)n(C)c1C(=O)c1ccc(Cl)cc1; result = 106%
Structure (SMILES) = O=S(=O)(O)Oc1ccc(C(c2ccc(OS(=O)(=O)O)cc2)c2ccccn2)cc1; result = 103%
Structure (SMILES) = CCOC(=O)CC(=O)N1CCSC1COc1ccccc1OC (centres unmarked); result = 111%
Structure (SMILES) = S=P(N1CC1)(N1CC1)N1CC1; result = 38.9%
Structure (SMILES) = COC1C(OC(N)=O)C(O)C(Oc2ccc3c(O)c(NC(=O)c4ccc(O)c(CC=C(C)C)c4)c(=O)oc3c2C)OC1(C)C (centres unmarked); result = 84.3%

Sample 3 — read-out: enzyme activity; action: inhibitor; tested at: 0.5 µM; reference: control; endpoint: remaining activity
Target: Platelet-derived growth factor receptor alpha (PDGFRA, Homo sapiens, UniProt P16234)
Chain of UniProt P16234 (whole entry, looked up): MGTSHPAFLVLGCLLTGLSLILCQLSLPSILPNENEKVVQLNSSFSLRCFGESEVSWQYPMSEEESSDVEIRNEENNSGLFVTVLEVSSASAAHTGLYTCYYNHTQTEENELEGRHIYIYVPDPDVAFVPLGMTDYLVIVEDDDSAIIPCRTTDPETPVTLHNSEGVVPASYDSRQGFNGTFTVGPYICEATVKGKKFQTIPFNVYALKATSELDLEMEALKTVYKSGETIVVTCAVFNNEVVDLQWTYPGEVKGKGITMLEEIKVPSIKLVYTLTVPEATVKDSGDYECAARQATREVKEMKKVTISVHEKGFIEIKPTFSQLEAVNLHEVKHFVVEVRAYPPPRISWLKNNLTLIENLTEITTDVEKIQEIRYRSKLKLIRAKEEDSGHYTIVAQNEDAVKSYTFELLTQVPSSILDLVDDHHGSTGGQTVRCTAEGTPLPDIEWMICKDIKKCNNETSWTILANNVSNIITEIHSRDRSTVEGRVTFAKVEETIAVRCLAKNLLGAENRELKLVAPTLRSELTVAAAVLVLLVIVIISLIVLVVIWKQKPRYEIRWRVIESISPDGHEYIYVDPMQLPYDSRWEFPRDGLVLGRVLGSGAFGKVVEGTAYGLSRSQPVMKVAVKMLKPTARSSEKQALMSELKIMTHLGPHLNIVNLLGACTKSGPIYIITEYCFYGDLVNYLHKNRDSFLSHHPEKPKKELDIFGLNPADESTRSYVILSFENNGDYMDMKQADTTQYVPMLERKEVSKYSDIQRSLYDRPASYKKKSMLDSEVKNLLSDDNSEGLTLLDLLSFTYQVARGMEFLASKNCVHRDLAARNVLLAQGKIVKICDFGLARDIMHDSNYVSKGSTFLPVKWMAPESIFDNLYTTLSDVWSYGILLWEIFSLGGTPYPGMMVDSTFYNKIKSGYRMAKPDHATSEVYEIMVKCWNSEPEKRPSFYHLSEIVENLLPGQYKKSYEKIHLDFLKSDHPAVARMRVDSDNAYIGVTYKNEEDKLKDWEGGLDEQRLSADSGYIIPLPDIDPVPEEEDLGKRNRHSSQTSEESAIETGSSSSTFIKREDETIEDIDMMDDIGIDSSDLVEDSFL
Compound = COc1cc2ncnc(Nc3ccc(O)c(Br)c3)c2cc1OC; result = 88.9%
Compound = Cc1nc2cc3nc(-c4cccs4)cnc3cc2n1C; result = 23.8%
Compound = c1ccc(-c2cnc(Nc3ccc(OCCN4CCCC4)cc3)s2)cc1; result = 57.4%
Compound = Nc1cccc(-c2cc3c(Oc4cccc(O)c4)ncnc3[nH]2)c1; result = 73.6%
Compound = Cc1cc2ncc(-c3ccccc3)nc2cc1C; result = 95.4%
Compound = O=C(NC(NC(=S)Nc1ccc(F)c([N+](=O)[O-])c1)C(Cl)(Cl)Cl)C(c1ccccc1)c1ccccc1 (centres unmarked); result = 100%
Compound = C[C@@H]1CCN(C(=O)CC#N)C[C@@H]1N(C)c1ncnc2[nH]ccc12; result = 104%
Compound = N#C/C(=C\c1ccc(O)c(O)c1)C(=O)NCc1ccccc1; result = 110%
Compound = O=C(Nc1cccc(Nc2nccc(Nc3cccc(C(F)(F)F)c3)n2)c1)C1CC1; result = 89.3%
Compound = O=c1cc(-c2cccc3c2Sc2ccccc2S3)oc(N2CCOCC2)c1; result = 102%

Sample 4 — technique: competition with immobilised ligand; endpoint: remaining binding
Compound: CNC(=O)c1ccc(Nc2ncc(C(F)(F)F)c(NCc3nccnc3N(C)S(C)(=O)=O)n2)cc1
target = STK17B (Homo sapiens, UniProt O94768); assay = cell-free assay; setting = 0.1 µM; result = 100%
target = MAP3K19 (Homo sapiens, UniProt Q56UN5); assay = binding; setting = 1 µM; result = 1.7%
target = Tyrosine-protein kinase JAK1, JH1 (JAK1, Homo sapiens, UniProt P23458); assay = cell-free assay; setting = 0.1 µM; result = 28%
target = HIPK3 (Homo sapiens, UniProt Q9H422); assay = cell-free assay; setting = 0.1 µM; result = 47%
target = CDK18 (Homo sapiens, UniProt Q07002); assay = cell-free assay; setting = 0.1 µM; result = 68%
target = MAP3K11 (Homo sapiens, UniProt Q16584); assay = cell-free assay; setting = 0.1 µM; result = 35%
target = CDK3 (Homo sapiens, UniProt Q00526); assay = cell-free assay; setting = 0.1 µM; result = 100%
target = PKN2 (Homo sapiens, UniProt Q16513); assay = cell-free assay; setting = 0.1 µM; result = 37%
target = Insulin receptor (INSR, Homo sapiens, UniProt P06213); assay = cell-free assay; setting = 0.1 µM; result = 91%
target = CDKL1 (Homo sapiens, UniProt Q00532); assay = cell-free assay; setting = 0.1 µM; result = 82%
target = Aurora kinase B (AURKB, Homo sapiens, UniProt Q96GD4); assay = cell-free assay; setting = 0.1 µM; result = 73%
target = GAK (Homo sapiens, UniProt O14976); assay = cell-free assay; setting = 0.1 µM; result = 69%
target = WEE1 (Homo sapiens, UniProt P30291); assay = cell-free assay; setting = 0.1 µM; result = 95%
target = Aurora kinase A (AURKA, Homo sapiens, UniProt O14965); assay = cell-free assay; setting = 0.1 µM; result = 50%
target = CASK (Homo sapiens, UniProt O14936); assay = cell-free assay; setting = 0.1 µM; result = 88%
target = CLK3 (Homo sapiens, UniProt P49761); assay = cell-free assay; setting = 0.1 µM; result = 97%
target = GRK2 (Homo sapiens, UniProt P25098); assay = cell-free assay; setting = 0.1 µM; result = 89%
target = CDK14 (Homo sapiens, UniProt O94921); assay = cell-free assay; setting = 0.1 µM; result = 88%
target = MET (Homo sapiens, UniProt P08581, Y1235D); assay = cell-free assay; setting = 0.1 µM; result = 71%

A few entries again (sample 3):
Compound = COc1cc2ncnc(Nc3ccc(O)c(Br)c3)c2cc1OC; result = 88.9%
Compound = Cc1nc2cc3nc(-c4cccs4)cnc3cc2n1C; result = 23.8%
Compound = O=C(Nc1cccc(Nc2nccc(Nc3cccc(C(F)(F)F)c3)n2)c1)C1CC1; result = 89.3%
Compound = c1ccc(-c2cnc(Nc3ccc(OCCN4CCCC4)cc3)s2)cc1; result = 57.4%
Compound = C[C@@H]1CCN(C(=O)CC#N)C[C@@H]1N(C)c1ncnc2[nH]ccc12; result = 104%
